Measured values pooled from the literature.
Every numbered part comes from another study and shows a few of its results, in no order. Values joined by “and” are separate records of one study, mostly repeats; a detail may differ. Changes are numbered by the printed parent chain.

Block 1
Target: Fragile X messenger ribonucleoprotein 1, C-terminal low-complexity region (Fmr1, Mus musculus, UniProt P35922)
Technique: RNA Bind-n-Seq
Form: RNA
Medium: in vitro
Concentration: 200 nM
Notes: whole 134-nt RNA, ends assumed
Added: 150 mM LiCl
Baseline: input library
Reading: higher = stronger binding
Library: 7-deaza-guanosine replaces G
`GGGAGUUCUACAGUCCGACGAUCAGUCCUGUGCUACACAUCGUAUGUACCGAAUCGGGAAAGGGUUUGGGUUUUUUUGGGAAAGUAUUAUGUUACGCCGUUCGGAUCUGCACUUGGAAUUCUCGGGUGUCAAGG` has a log2 enrichment of -2.22.
With `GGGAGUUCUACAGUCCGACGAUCACCACGCAGGUGGGCAUCUUUGGGAAGUGGGGCAAGGGGGGGAUAGGGAGGGGGGUAACACUUUGGGAACAGGUGGUCCCAGGUCGUUUCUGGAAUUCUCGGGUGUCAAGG` the log2 enrichment was 1.55.
With `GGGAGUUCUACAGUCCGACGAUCUCCUGUGCUACACAUCGUAUGUACCGAAUCAAAUUUAAAUUUUUUUAAACCCCCCCAAAAAAGUAUUAUGUUACGCCGUUCGGAUCUGCAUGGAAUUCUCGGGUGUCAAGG` the log2 enrichment was 1.89.
The log2 enrichment of `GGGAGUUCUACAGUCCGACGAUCUGUGCUACACAUCGUAUGUACCGAAUCGGGGCCCCCCCGGGGCCCCCCCGGGGCCCCCCCGGGAAAGUAUUAUGUUACGCCGUUCGGAUCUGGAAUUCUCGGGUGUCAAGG` is reported as -1.71.
The log2 enrichment of `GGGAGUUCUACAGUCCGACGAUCCUGUGCUACACAUCGUAUGUACCGAAUCGGGGCCCCCCCGGCCCCCCCGGGCCCCCCCGGGGAAAGUAUUAUGUUACGCCGUUCGGAUCUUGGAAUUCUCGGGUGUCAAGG` is reported as 0.34.
For `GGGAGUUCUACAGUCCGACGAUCUCCUGUGCUACACAUCGUAUGUACCGAAUCAAAGUGUGUGUGUGAAAUGUGUGUGUGAAAAAAGUAUUAUGUUACGCCGUUCGGAUCUGCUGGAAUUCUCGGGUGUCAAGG`, the log2 enrichment was -1.95.
`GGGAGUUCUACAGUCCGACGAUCGUCCUGUGCUACACAUCGUAUGUACCGAAUCGGGCCCCCGGCCCCCGGGCCCCCGGGGAAAGUAUUAUGUUACGCCGUUCGGAUCUGCACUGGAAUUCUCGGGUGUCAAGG` gave a log2 enrichment of -1.56.
For `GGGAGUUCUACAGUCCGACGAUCCACAGACAACACGCACCAAAACAGACACAGAGGGAAGGGGUUGGGAUGGGGACAGGGUGCACAGCAGGGCGGGGUAGGACCCCAGCCCCUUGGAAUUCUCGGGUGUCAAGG`, the log2 enrichment was 1.04.

Block 2
Target: CCND2, cyclin fold, Cln2 fusion (human)
Technique: yeast growth competition, sequencing
Medium: yeast
Notes: weak parent motif
Baseline: not given
Reading: higher = stronger binding
Starting sequence: SLBP docking peptide (human); ARYKRKLLINDFG; partner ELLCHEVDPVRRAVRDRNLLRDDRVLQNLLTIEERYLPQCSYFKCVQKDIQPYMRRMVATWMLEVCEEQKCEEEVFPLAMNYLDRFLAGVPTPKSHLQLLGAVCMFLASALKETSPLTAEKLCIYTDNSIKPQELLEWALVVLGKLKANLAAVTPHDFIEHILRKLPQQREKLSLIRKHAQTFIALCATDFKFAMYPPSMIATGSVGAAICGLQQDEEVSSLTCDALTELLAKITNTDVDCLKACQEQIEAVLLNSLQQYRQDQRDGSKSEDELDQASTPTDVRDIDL
`ARYKRKLLMNDFG [I9M]`: “normalised enrichment score” 0.237.
For `ARYGRKLLINDFG [K4G]`, “normalised enrichment score” read 0.044.
`ARFKRKLLINDFG [Y3F]`: “normalised enrichment score” -0.054.
`ARAKRKLLINDFG [Y3A]` — result for “normalised enrichment score”: 0.573.
Under “normalised enrichment score”, `ARYKRKLMINDFG [L8M]` is recorded as 0.634.
`ARYWRKLLINDFG [K4W]`: “normalised enrichment score” 0.721.
Under “normalised enrichment score”, `ARYKRKLLINDTG [F12T]` is recorded as -0.258.
Under “normalised enrichment score”, `ARYKRKLLINYFG [D11Y]` is recorded as 0.286.
For `ARYKRKALINDFG [L7A]`, “normalised enrichment score” read 0.0146.
`AREKRKLLINDFG [Y3E]` — result for “normalised enrichment score”: 0.134.
`AIYKRKLLINDFG [R2I]` — result for “normalised enrichment score”: 0.102.
For `ARYKCKLLINDFG [R5C]`, “normalised enrichment score” read 0.218.

Block 3
Target: Histone acetyltransferase KAT6A, winged helix 2, GST fusion (KAT6A, Homo sapiens, UniProt Q92794, residues 85-181)
Technique: protein binding microarray
Form: double-stranded DNA, one strand shown
Medium: in vitro
Concentration: not given
Notes: 8-mer, flanks averaged, mean of 2 arrays, mostly near background
Baseline: not given
Reading: higher = stronger binding
Residues (chain): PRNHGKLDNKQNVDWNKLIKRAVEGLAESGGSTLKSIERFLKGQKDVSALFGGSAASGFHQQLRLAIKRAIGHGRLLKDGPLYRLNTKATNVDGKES
`ACACCGCT` gave an E-score of -0.0781.
For `CTTAAAAC`, the E-score was 0.169.
`GGTCCCAC` has an E-score of 0.0546.
The E-score of `CGACAACG` is reported as -0.0651.
The E-score of `AGGGTAAA` is reported as -0.0062.
`AAAGTACA` gave an E-score of 0.0704.
With `GCTTAACA` the E-score was 0.0349.
For `ATACATTC`, the E-score was -0.166.
`ATCGATGG` gave an E-score of -0.0648.
With `CGCTGGAA` the E-score was 0.162.
With `CCATTTAC` the E-score was -0.141.
`ATACTCCA` has an E-score of -0.0796.
The E-score of `ATTGGCAC` is reported as 0.0267.
`CGCTGTGC` gave an E-score of 0.142.
With `GAGACAGC` the E-score was 0.0167.
`GGTTGGCA` gave an E-score of 0.0354.
`ACGTGTAT` gave an E-score of -0.207.
`ACGCCGAC` gave an E-score of 0.0271.
With `TGTGGGAA` the E-score was -0.0138.
With `CCCGAGGC` the E-score was 0.0177.
`CAATAGGA` gave an E-score of -0.196.
With `AGTAGAGA` the E-score was 0.131.
`AGCCGCGG` has an E-score of 0.23.

Block 4
Target: RING finger protein unkempt homolog, zinc fingers 1-6, GST-SBP tag (UNK, Homo sapiens, UniProt Q9C0B0, residues 30-357)
Chain of UniProt Q9C0B0 (30-357, looked up): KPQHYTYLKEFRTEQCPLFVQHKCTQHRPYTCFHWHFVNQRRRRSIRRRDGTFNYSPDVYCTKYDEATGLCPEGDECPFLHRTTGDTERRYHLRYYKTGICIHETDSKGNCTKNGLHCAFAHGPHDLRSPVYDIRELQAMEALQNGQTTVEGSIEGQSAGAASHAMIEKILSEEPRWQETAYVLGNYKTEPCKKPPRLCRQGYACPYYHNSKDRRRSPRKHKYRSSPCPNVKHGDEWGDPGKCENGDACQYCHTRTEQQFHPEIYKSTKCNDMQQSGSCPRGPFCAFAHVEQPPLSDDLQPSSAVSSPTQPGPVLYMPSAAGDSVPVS
Technique: RNA Bind-n-Seq
Form: RNA
Medium: in vitro
Concentration: not given
Notes: RNA with constant flanks, human-mouse chimeric sites, ends assumed
Baseline: input RNA pool
Reading: higher = stronger binding
With `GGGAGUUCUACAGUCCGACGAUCAAAGAGUGGAUAGAGUGUGCACACGGGAUCGGUGGGACUCGGGCAGAAAAGGAGUGCAAGAUAGAGUAUGAUGAUUUCGAAGAGUGCUUGCUUCGGUACAAAACGAUGAGGCGAAUGCAUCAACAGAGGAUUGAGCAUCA` the bound/input enrichment was 0.795 ratio.
`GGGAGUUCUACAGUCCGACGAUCUGACAAGGGCACUGCAGAGCCAUGCCUUUCCUUGACAUACAGAAAAAGCUGGGCAUCAGCCUGGACCGGCACUUUAUGUUCCUAAGCGGUGAACAGCCCUAUAAGAAGGCUGGUCGAUGCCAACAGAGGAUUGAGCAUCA` has a bound/input enrichment of 0.0907 ratio.
The bound/input enrichment of `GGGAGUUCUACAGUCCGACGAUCCUCAGAGACGUGGCAUAUCAGUAUGUGAAAAAGGGGGCUCGAAUUUAUGUGGAAGGGAAAGUGGACUAUGGCGAGUACAUGGAUAAAAACAAUGUGAGGCGGCAAGCAACAACAAUCAUACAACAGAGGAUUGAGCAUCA` is reported as 0.373 ratio.
With `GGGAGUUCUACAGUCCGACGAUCCUGGCCUGGCCCUCCCCAGGGGCCUCCUUUCGUAUAGUAACUGUCAGUGCAUCAGAUACUUUCAGCUCCAAGUCCUGACUGGGUGGGGCACCCAUUUCAGGCAGAAGGUUUUGGUACCCUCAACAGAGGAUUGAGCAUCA` the bound/input enrichment was 0.238 ratio.
With `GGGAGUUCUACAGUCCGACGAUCUAAGUCCUGUGCCAGCACUUCGCUCAUAAAGUUUUAAAUUCUGGACCAAUAGUGUUUGUUUCCUGAUUAUUGUAUCCAAUACUUUAUCUAGUAUGUAACUCAUGCUUACUGAUAAUAAAACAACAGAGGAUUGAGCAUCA` the bound/input enrichment was 0.523 ratio.
`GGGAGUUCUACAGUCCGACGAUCGAGCGUCUUGCCCGCACUGGGAUCAUCGUGACCACGAGUGAGGCUGUCCUCCUACAGCUGGUGGCUGACAAAGACCAUCCAAAAUUCAAGGAAAUUCAGAACCUAAUUAAGGCGAGUGCCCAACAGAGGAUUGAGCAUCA` gave a bound/input enrichment of 0.12 ratio.
For `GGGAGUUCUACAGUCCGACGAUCACCAUUUUCGCGGUUCAGGCUUUGUGUGUAGUUCACUUACGGUAUUAAAUUAUUAUUGCCCUUAGUUUAUAAUAAGGAUAAUUGCAUUUAAAGAGGUUACUGAAUGUUACUCUGAAACUUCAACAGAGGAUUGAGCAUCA`, the bound/input enrichment was 0.749 ratio.
For `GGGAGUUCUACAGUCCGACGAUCGUGUCCUUUCAACUUAAUAAAUCACUGAGGCAUCUCUACUGUUCUGUGAGCAUCAGGACUGUAGCGCUUGCCACCACCAUGAGAGUUCAGAAGCAGCCUUUCUGUGGAGGGUGGGAAUGACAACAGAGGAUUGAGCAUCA`, the bound/input enrichment was 0.182 ratio.

Mixed results
For `PhoQ, residues 284 288 289 292 302 303 SCCLKL`, the fold induction was 9.14 and 6.43 (PhoP, residues 12 14 15 18 19 LWHSL (Escherichia coli, UniProt P23836); Sort-seq, measured: YFP reporter; E. coli; PhoQ-PhoP variant library, added: 10 µM Mg2+; baseline: high Mg2+ state, higher = stronger signaling).

Excerpt of the above (block 3):
`ATACTCCA` has an E-score of -0.0796.
The E-score of `ATTGGCAC` is reported as 0.0267.
`CGCTGTGC` gave an E-score of 0.142.
With `GAGACAGC` the E-score was 0.0167.
`GGTTGGCA` gave an E-score of 0.0354.
`ACGTGTAT` gave an E-score of -0.207.
`ACGCCGAC` gave an E-score of 0.0271.
